Measurements pooled from the literature.
Each numbered part is a random draw from the data of one study; scales do not carry over between parts. Substitutions count along the parent as printed.

Sample 1 — target: CCND3, cyclin fold, Cln2 fusion (human); method: yeast growth competition, sequencing; sample: yeast; setting: weak parent motif; relative to: not given; reading: higher = stronger binding
Starting sequence: MASTL docking peptide (human); PMIAKNLMCELDE; partner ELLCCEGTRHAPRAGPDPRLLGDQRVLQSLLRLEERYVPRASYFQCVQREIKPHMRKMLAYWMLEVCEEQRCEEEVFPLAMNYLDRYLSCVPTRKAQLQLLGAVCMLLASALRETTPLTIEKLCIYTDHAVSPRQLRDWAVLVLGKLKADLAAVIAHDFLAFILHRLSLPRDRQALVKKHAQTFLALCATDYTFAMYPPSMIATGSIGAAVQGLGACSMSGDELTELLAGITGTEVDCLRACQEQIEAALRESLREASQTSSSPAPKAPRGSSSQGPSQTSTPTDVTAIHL
| Variant | normalised enrichment score |
| --- | --- |
| PMIAKNLMCESDE [L11S] | -0.00898 |
| PMIAKNHMCELDE [L7H] | -1.06 |
| PMIPKNLMCELDE [A4P] | -0.03 |
| PIIAKNLMCELDE [M2I] | -0.236 |
| PMIAKNLMCELNE [D12N] | -0.143 |
| PMIAKNNMCELDE [L7N] | -0.223 |

Sample 2 — method: protein binding microarray; form: double-stranded DNA, one strand shown; sample: in vitro; concentration: not given; relative to: not given; reading: higher = stronger binding
Target: Histone acetyltransferase KAT6A, winged helix 1, GST fusion (KAT6A, Homo sapiens, UniProt Q92794, residues 1-85)
Setting: 8-mer, flanks averaged, mean of 2 arrays, mostly near background
Target sequence (chain): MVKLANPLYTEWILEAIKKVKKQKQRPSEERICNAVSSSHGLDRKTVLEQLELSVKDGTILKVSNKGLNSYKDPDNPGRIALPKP
| Strand | E-score |
| --- | --- |
| CCTGGTCA | -0.187 |
| GCCGTAAA | 0.393 |
| CTACGTGA | -0.188 |
| CGATCGAC | 0.0862 |
| CGCTAACG | 0.291 |
| GCAACACA | -0.025 |
| CCATTGAA | -0.0995 |
| GAGGCCTA | -0.103 |

Sample 3 — method: RNA Bind-n-Seq; form: RNA; sample: in vitro; concentration: 200 nM; setting: whole 134-nt RNA, ends assumed; together with: 150 mM LiCl; relative to: input library; reading: higher = stronger binding; library: 7-deaza-guanosine replaces G
Target: Fragile X messenger ribonucleoprotein 1, C-terminal low-complexity region (Fmr1, Mus musculus, UniProt P35922)
| Strand | log2 enrichment |
| --- | --- |
| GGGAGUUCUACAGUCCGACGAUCCCCGAGCCGGAGAGGGAGCGCGAGCCGCGCCGGCCCCGGUCGGGCCUCCGAAACCAUGAACUUUCUGCUGUCUUGGGUGCAUUGGAGCCUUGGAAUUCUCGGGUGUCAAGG | -0.0764 |
| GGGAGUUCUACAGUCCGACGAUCUGAUGGGACAACACCCGAAAGGAUAGCACAAAUAACAGGACCUCCAGACCGAUGUCAACAUGCUGCAGAAAUUAUUACAGACCUUCUUCGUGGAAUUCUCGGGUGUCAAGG | 1.74 |
| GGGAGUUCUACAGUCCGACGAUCAAGUCCUGUGCUACACAUCGUAUGUACCGAAUCGGAAAAAAAGGAAAAAAAGGAGGAAAGUAUUAUGUUACGCCGUUCGGAUCUGCACUUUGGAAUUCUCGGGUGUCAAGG | -1.17 |
| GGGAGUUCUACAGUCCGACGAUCAGUCCUGUGCUACACAUCGUAUGUACCGAAUCGGGGAAAAGGAAAAGGGGAAAAGGGAAAGUAUUAUGUUACGCCGUUCGGAUCUGCACUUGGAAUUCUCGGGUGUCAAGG | -0.797 |
| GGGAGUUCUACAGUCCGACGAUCCCUGUGCUACACAUCGUAUGUACCGAAUCGGGGAAAGGGGUUUUUGGGGUUUUUUUGGGGAAAGUAUUAUGUUACGCCGUUCGGAUCUGCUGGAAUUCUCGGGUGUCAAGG | 0.326 |
| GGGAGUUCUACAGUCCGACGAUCUGGGAGGUGGAUUUUGUUUAUUUUUUUAGCUCAUUUCCAGGGGUGGCAAUUUUUUUUUAAUAUGUGUCAUGAAUAAAGUUGUUUUUGAAAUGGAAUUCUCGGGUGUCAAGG | -0.643 |

Single results of other studies
| Substance | target | assay | test system | conditions | how to read | quantity | result |
| --- | --- | --- | --- | --- | --- | --- | --- |
| PhoQ, residues 284 288 289 292 302 303 AGGLSV | PhoP, residues 12 14 15 18 19 LHSVW (Escherichia coli, UniProt P23836) | Sort-seq, measured: YFP reporter | E. coli | PhoQ-PhoP variant library, together with: 10 µM Mg2+ | relative to: high Mg2+ state, higher = stronger signaling | fold induction | 2.95 |

A few entries again (sample 2):
| Strand | E-score |
| --- | --- |
| CGCTAACG | 0.291 |
